Published values pooled from the literature.
Compare with care: the assays were run in different laboratories. Values joined by “and” are separate records of one study, mostly repeats; a detail may differ. Converted amounts (≈) assume the structure as drawn.

SMILES	tested on	test	system	setting	scale	endpoint	result
Cc1ccc(NC(=O)c2sc3nc(-c4ccccc4)cc(C(F)(F)F)c3c2N)cc1	Mycobacterium tuberculosis	growth inhibition	H37Rv LepB under-expressing			IC50	> 100 µM
CNC(=O)Oc1cccc2c1OC(C)(C)C2O (centres unmarked)	SH-SY5Y	neurite outgrowth, phase-contrast imaging		nominal concentration	baseline: IC10 over EC10	selectivity ratio	36.6
OC(Cn1cncn1)(Cn1cncn1)c1ccc(F)cc1F	Saccharomyces cerevisiae	cell growth	Pdr5 deleted, empty vector	2^-2.737 µg/mL		OD600	1.03 and 1.05 and 1.04
CC[C@H](C)[C@H](NC(=O)[C@H](C)NC(=O)[C@H](CCCCN)NC(=O)[C@H](CC(C)C)NC(=O)[C@H](C)NC(=O)[C@@H](NC(=O)[C@H](Cc1c[nH]cn1)NC(=O)[C@H](CC(C)C)NC(=O)[C@@H](NC(=O)[C@@H](NC(=O)[C@H](CCCCN)NC(=O)[C@H](C)NC(=O)[C@H](C)NC(=O)[C@H](CO)NC(=O)[C@H](CCCCN)NC(=O)[C@H](Cc1ccccc1)NC(=O)[C@@H](NC(=O)[C@H](CCCCN)NC(=O)[C@H](CC(C)C)NC(=O)[C@H](Cc1ccccc1)NC(=O)[C@H](CO)NC(=O)[C@H](CCCCN)NC(=O)[C@H](Cc1c[nH]c2ccccc12)NC(=O)[C@H](CCCCN)NC(C)=O)[C@@H](C)O)[C@@H](C)O)C(C)C)[C@@H](C)O)C(=O)N[C@@H](CO)C(=O)N[C@@H](CO)C(N)=O	Enterobacter aerogenes			40 strains		MBC50	8 µg/mL (≈ 2.73 µM)
CC[C@H](C)[C@@H]1NC(=O)[C@@H]2CCCN2C(=O)[C@H](CC(C)C)NC(=O)[C@H](CC(C)C)NC(=O)CNC(=O)[C@@H](NC(=O)[C@@H](NC(=O)[C@H](CC(=O)O)NC(=O)CNC(=O)[C@@H](NC(=O)[C@H](C)NC(=O)CNC(=O)[C@H](CCCCN)NC(=O)[C@H](CC(C)C)NC(=O)[C@H](CC(C)C)NC(=O)[C@H](CCCCN)NC(=O)CNC(=O)[C@@H](NC(=O)[C@@H](N)CC(C)C)C(C)C)C(C)C)C(C)C)CSSC[C@@H](C(=O)O)NC1=O		RNA-seq, measured: Bnip2	mouse, traumatic brain injury model, frontal cortex and hippocampus	dose not given	baseline: TBI alone	log2 fold change	0.024
CCOC(=O)C1CC(c2c[nH]c3ccccc23)c2c(ccc3c2OCO3)N1 (centres unmarked)	Schistosoma mansoni	microscopic viability scoring	newly transformed schistosomula	10 µM, 72 h, prescreen		viability reduction	23.3%
COc1c(CCC[P+](c2ccccc2)(c2ccccc2)c2ccccc2)cc2c(c1OC)OCO2.[I-]	OVCAR-8	SRB				GI50	-5.58 log M
Oc1ccc(-c2cc(Cl)ccc2Cl)c(Cl)c1	gap junction, rat	gap junctional communication, scrape loading dye transfer	WB-F344 rat liver epithelial	1 h		IC25	7 µM
COc1ccc(-c2cc(C(F)(F)F)c3c(N)c(C(=O)N4CCC4)sc3n2)cc1	Mycobacterium tuberculosis		H37Rv wild type		baseline: HepG2 IC50 over M. tuberculosis IC90	selectivity index	< 1
Fc1ccc(F)c(-c2ccc3ncccc3c2)c1	Schistosoma mansoni	microscopic viability scoring	newly transformed schistosomula	10 µM, 72 h, prescreen		viability reduction	18.8%
CCCCCc1cc(O)c2c(c1)OC(C)(C)[C@@H]1CCC(C)=C[C@@H]21		antinociception (tail withdrawal), warm water tail withdrawal	ICR mouse, male	intravenous		ED50	12 µmol/kg
CCCCC1(CCCC)CN(c2ccccc2)c2cc(SC)c(OCC(=O)N[C@@H](C(=O)NCC(=O)O)c3ccccc3)cc2S(=O)(=O)C1		measured: HDL cholesterol	human, serum	15 mg once daily, day 11		serum HDL-C	42.1 mg/dL
CN1CCN(C2(CNC3CCN(c4cccc(-c5cc6cc(F)ccc6[nH]5)c4)CC3)CCC2)CC1	NCI-H460					GI50	2.04 µM
CC[C@@H](C)[C@@H](NC(=O)[C@@H](Cc1ccc(O)cc1)NC(=O)[C@H]1CCCN1C(=O)[C@@H](CCCNC(=N)N)NC(=O)[C@H](N)Cc1c[nH]cn1)C(=O)N[C@H](C)C(=O)N[C@H](Cc1c[nH]cn1)C(=O)N[C@H](CCCNC(=N)N)C(=O)N[C@H](CCCCNC(=O)c1cccc(S(=O)(=O)F)c1)C(=O)N[C@H](Cc1ccc(O)cc1)C(=O)N[C@H](CO)C(=O)N[C@H](Cc1ccccc1)C(N)=O		ex vivo flow cytometry	MC-38 tumour-bearing mice, tumour	1.3 mg/kg	baseline: CD4+ T cells	IFN-γ+ CD4+ T cells	5.06% and 4.77% and 5.27% and 4.07%
O=c1c2cc(C(F)(F)F)ncc2[nH]c(=S)n1Cc1cccnc1	Mycobacterium tuberculosis		PptT conditional knockdown			MIC90	0.97 µM (≈ 0.328 µg/mL)
O=P1(N(CCCl)CCCl)NC(OO)CCO1 (centres unmarked)	HD-MB03				baseline: DMSO	IC50	inactive
C[C@]12CC[C@H]3[C@@H](CC=C4CC(O)CC[C@@]43CO)[C@@H]1CCC2O (some centres unmarked)			GAN diet MASH rats	ip, 20 mg/kg, two weeks	baseline: GAN vehicle	liver TAG level	decreased
COc1ccc(-c2ccc3c(N)c(C(=O)Nc4cccc(C)c4C)sc3n2)cc1	Mycobacterium tuberculosis	growth inhibition	H37Rv LepB under-expressing			IC50	> 100 µM
COc1cc(CCC[P+](c2ccccc2)(c2ccccc2)c2ccccc2)c(OC)c2c1OCO2.[I-]	SF-295	SRB				GI50	-5.63 log M
COc1ccc(-n2nc(C(C)=O)s/c2=N\N=C(/C)c2ccc(NC(C)=O)cc2)cc1	WI-38			2.5 µM		toxicity	96.8%
